# Measured values pooled from the literature.
# ± gives the spread as reported.
# Gria2/Glutamate receptor 3: Gria2/Glutamate receptor 3 (Rattus norvegicus, UniProt P19491+P19492)
# UniProt P19492, sequence (whole entry, looked up): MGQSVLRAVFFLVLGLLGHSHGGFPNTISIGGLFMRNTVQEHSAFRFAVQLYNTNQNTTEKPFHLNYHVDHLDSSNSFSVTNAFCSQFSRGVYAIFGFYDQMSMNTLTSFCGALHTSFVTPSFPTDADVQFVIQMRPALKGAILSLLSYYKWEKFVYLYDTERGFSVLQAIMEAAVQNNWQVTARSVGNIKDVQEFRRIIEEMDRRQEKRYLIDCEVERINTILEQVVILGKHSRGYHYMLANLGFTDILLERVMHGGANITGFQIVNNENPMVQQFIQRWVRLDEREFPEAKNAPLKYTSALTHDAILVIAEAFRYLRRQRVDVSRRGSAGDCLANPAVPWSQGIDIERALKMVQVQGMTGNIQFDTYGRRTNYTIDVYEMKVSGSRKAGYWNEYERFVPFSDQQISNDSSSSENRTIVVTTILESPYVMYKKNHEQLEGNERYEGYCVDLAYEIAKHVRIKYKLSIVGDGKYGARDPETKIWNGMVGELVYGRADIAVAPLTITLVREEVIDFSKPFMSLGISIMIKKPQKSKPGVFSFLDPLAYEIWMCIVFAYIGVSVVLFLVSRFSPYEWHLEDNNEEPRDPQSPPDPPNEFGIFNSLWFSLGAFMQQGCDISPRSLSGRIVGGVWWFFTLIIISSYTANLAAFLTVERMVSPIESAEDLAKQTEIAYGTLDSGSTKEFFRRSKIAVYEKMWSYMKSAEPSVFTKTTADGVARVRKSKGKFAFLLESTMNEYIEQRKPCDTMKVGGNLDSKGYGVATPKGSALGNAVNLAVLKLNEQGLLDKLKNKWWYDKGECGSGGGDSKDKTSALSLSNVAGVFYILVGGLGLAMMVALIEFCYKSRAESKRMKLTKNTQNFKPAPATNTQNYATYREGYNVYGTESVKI
# UniProt P19491, sequence (whole entry, looked up): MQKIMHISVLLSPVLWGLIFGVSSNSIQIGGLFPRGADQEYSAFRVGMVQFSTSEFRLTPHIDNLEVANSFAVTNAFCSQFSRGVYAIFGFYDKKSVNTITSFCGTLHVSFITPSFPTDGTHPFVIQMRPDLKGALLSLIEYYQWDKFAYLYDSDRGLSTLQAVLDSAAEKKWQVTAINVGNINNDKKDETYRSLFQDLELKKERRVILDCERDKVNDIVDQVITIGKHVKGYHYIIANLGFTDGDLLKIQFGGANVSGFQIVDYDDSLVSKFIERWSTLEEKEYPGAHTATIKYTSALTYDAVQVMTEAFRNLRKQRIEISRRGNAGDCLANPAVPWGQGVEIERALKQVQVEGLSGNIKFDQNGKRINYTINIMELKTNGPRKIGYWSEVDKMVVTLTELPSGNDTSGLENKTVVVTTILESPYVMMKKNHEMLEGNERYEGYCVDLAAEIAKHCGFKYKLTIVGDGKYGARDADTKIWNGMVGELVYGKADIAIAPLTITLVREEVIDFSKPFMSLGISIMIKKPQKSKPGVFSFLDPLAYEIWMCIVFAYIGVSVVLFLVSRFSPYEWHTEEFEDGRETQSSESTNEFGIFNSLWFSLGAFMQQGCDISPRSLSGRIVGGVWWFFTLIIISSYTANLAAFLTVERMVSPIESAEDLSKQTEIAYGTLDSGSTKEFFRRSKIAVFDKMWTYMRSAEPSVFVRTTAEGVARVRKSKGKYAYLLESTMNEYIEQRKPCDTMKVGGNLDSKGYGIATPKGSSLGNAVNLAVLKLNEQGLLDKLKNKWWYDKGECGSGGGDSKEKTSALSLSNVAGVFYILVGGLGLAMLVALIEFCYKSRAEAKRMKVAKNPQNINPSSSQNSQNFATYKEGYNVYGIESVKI
# UniProt O76083, sequence (whole entry, looked up): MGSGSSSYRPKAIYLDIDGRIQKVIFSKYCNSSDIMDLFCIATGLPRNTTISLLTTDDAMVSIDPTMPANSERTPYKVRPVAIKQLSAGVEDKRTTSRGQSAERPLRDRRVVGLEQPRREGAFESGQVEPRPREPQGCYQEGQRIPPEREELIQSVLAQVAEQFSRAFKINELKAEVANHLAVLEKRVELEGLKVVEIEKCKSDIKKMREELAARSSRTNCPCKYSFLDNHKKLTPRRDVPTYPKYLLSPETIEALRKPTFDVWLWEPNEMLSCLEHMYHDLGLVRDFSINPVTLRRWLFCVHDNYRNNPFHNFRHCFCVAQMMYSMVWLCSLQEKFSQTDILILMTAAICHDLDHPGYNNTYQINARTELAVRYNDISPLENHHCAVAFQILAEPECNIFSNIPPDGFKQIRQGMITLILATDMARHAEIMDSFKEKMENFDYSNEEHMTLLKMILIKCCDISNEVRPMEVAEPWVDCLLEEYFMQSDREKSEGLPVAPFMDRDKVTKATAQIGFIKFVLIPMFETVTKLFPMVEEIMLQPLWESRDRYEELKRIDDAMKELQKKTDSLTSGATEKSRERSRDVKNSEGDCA
# UniProt P20618, sequence (whole entry, looked up): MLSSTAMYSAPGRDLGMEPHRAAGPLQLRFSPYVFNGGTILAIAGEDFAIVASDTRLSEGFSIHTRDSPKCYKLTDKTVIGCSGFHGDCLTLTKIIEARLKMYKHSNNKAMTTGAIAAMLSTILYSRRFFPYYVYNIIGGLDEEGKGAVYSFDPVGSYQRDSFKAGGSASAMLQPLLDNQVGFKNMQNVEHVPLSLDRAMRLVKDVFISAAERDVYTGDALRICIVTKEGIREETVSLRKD
# UniProt P11509, sequence (whole entry, looked up): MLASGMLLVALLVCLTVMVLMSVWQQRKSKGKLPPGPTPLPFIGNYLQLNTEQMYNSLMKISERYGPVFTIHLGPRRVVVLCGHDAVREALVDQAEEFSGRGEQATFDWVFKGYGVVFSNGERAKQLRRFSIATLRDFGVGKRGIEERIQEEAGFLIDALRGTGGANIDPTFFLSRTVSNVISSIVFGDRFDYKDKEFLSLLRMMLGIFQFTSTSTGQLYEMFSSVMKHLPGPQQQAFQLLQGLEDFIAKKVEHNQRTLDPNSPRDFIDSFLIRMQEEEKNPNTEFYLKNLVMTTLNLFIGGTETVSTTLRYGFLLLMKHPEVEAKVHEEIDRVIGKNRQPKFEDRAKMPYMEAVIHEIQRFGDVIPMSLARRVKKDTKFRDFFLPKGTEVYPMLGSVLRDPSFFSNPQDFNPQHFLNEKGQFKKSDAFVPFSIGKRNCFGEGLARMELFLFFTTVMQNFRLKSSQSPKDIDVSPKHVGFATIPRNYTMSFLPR
# UniProt Q8NFU5, sequence (whole entry, looked up): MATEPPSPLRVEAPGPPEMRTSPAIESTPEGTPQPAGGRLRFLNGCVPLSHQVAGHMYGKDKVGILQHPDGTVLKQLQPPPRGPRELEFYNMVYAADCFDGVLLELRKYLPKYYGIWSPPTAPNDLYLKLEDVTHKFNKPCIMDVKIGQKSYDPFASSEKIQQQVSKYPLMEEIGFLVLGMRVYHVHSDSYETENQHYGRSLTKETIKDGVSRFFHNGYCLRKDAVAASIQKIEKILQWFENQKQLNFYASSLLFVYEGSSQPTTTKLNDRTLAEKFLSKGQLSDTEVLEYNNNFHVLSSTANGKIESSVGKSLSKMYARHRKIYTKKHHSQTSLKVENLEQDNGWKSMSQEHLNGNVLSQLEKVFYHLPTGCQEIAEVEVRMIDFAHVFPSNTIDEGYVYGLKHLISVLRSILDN
# UniProt P28062, sequence (whole entry, looked up): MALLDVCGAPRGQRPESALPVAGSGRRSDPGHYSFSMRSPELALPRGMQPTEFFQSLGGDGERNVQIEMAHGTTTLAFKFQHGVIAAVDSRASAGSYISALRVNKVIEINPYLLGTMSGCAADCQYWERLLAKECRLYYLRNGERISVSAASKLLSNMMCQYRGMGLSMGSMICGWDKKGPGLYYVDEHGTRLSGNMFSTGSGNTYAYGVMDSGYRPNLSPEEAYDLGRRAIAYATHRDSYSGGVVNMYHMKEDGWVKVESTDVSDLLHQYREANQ
# UniProt P53350, sequence (whole entry, looked up): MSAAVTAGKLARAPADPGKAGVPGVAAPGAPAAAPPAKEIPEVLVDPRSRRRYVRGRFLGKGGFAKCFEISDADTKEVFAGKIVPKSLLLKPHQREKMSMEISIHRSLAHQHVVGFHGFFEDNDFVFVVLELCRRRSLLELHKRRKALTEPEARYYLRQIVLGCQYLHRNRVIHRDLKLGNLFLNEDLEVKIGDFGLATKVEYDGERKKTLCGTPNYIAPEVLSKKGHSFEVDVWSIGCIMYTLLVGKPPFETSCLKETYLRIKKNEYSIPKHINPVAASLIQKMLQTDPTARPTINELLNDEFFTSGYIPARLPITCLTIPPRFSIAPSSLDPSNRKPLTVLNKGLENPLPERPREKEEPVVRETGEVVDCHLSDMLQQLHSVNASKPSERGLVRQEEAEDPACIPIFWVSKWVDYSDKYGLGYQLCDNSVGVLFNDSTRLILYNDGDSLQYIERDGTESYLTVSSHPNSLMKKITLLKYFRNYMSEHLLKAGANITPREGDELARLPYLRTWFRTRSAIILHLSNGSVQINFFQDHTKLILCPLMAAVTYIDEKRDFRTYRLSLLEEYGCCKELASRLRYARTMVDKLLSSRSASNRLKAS
# UniProt Q96GD4, sequence (whole entry, looked up): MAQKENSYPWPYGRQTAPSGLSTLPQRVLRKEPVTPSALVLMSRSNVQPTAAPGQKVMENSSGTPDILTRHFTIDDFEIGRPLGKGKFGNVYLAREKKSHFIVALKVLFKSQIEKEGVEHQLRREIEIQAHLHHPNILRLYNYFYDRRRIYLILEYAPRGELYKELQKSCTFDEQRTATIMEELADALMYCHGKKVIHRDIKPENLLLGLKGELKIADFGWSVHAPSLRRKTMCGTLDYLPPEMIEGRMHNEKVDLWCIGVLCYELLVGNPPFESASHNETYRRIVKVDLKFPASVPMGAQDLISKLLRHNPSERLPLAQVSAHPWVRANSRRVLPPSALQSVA
SMILES,target or system,assay,test system,setting,endpoint,value
Cc1ccc(-c2c3c([nH]c(=O)c2C#N)C(C(C)C)CCC3)cc1 (stereo not drawn),"PDE9A (Homo sapiens, UniProt O76083)","enzyme activity, inhibitor, radiometric",,,IC50,0.16 µM
Cc1nn(-c2cccc(N)c2)c(=O)c2cnc(Nc3ccc(N4CCNCC4)cc3)nc12,"PIM1 (Homo sapiens, UniProt P11309)","kinase activity, inhibitor, SelectScreen kinase profiling",,,IC50,> 10 µM
O=C(CCc1ccc(CNC(C(=O)OC2CCCC2)C2CCCCC2)cn1)NO (stereo not drawn),"HDAC7 (Homo sapiens, UniProt Q8WUI4)","enzyme activity, inhibitor",,,IC50,> 10 µM
CCc1ccc(/N=C2\C(=O)N(Cc3ccc([N+](=O)[O-])cc3)c3ccccc32)cc1,"PIK3CA (Homo sapiens, UniProt P42336)","enzyme activity, inhibitor, ADP detection",,,IC50,0.0197 µM
O=C(Cc1ccc(OCc2ccccc2)cc1)NC1(C(=O)O)CCN(C(=O)c2ccc(-c3cccc(Cl)c3)cc2)CC1,"P2Y purinoceptor 12 (P2RY12, Homo sapiens, UniProt Q9H244)","antagonist, GloSensor cAMP",,,IC50,> 10 µM
COC(=O)Cc1cc2c(cc1C(=O)c1ccc(Cl)cc1Cl)OCO2,Gria2/Glutamate receptor 3,"ion current, antagonist, patch clamp",,,IC50,4.9 µM
CN1CCN(S(=O)(=O)c2ccc(-c3ccc4ncnc(Nc5ccc(OCc6ccccc6)cc5)c4c3)cc2)CC1,Leishmania major,"intracellular amastigote growth, luciferase",RAW264.7 macrophages,,EC50,1.9 µM
Cc1oc(C)c(-c2ccc(N(CC(C)C)CC(C)C)c(NC(=O)Nc3ccc(B4OC(C)(C)C(C)(C)O4)cc3)c2)c1C(=O)O,"IDO1 (Homo sapiens, UniProt P14902)","enzyme activity, inhibitor, recombinant enzyme, measured: kynurenine",,"20 min, 2% DMSO, added: L-tryptophan",IC50,35 ± 9 µM
Cc1cc(C)c(S(=O)(=O)N(CC(=O)O)c2ccc(Nc3ccnc(N4CCCC4)n3)cc2)c(C)c1,"Aurora kinase B (AURKB, Homo sapiens, UniProt Q96GD4)","enzyme activity, inhibitor",,,IC50,> 100 µM
[N-]=[N+]=N[C@]1(COP(=O)(O)OP(=O)(O)OP(=O)(O)O)O[C@@H](n2ccc(N)nc2=O)[C@@H](F)[C@@H]1O,"POLG (Homo sapiens, UniProt P54098)","cell-free assay, inhibitor",,,IC50,> 1000 µM
NC(=O)c1ccc(C(=O)NOCc2ccc(Sc3cccc(Cl)c3)c(C(F)(F)F)c2)cc1,"Cytochrome P450 2A6 (CYP2A6, Homo sapiens, UniProt P11509)","enzyme activity, inhibitor",pooled human liver microsomes,,IC50,> 30 µM
CN1CCN(S(=O)(=O)c2ccc(-c3ccc4ncnc(Nc5ccc(F)cc5)c4c3)cc2)CC1,Leishmania major,"intracellular amastigote growth, luciferase",RAW264.7 macrophages,,EC50,> 15 µM
CCN(CC)CC(=O)Nc1cccc(-n2cc(-c3ccc4ccc(-c5cn(-c6cccc(NC(=O)CN(CC)CC)c6)nn5)cc4c3)nn2)c1,"PLK1 (Homo sapiens, UniProt P53350)","enzyme activity, inhibitor",,,IC50,> 10 µM
CC(C)(C)NC(=O)CC(NC(=O)CCc1ccccc1)C(=O)NCCNC(=O)c1ccc(-c2ccccc2)cc1 (stereo not drawn),"Proteasome component C5/PSMB8 (Homo sapiens, UniProt P20618+P28062)","enzyme activity, inhibitor",,immunoproteasome β5i,IC50,> 100 µM
O=C(O)Cc1cc2c(cc1C(=O)c1cccc(Cl)c1)OCO2,Gria2/Glutamate receptor 3,"ion current, patch clamp",,,IC50,4.28 µM
C#CCCn1nc(C)c2c(Cl)c(C(=O)NCC3CC(Br)=NO3)cnc21 (stereo not drawn),"MDH2 (Sus scrofa, UniProt P00346)","enzyme activity, reporter counter-screen",,native enzyme,IC50,> 63 µM
CC1(C)C(=O)N=C2C1=C(O)C(=O)c1ccccc12,"SETD7 (Homo sapiens, UniProt Q8WTS6)","enzyme activity, inhibitor",,,IC50,> 100 µM
COC(=O)c1cccc(CN2CCC(Nc3nc(NCc4cccc(OC)c4)nc4[nH]cnc34)CC2)c1,"IPMK (Homo sapiens, UniProt Q8NFU5)","enzyme activity, inhibitor",,,IC50,12 µM

# For quick reference, copied from above:
SMILES,target or system,assay,test system,setting,endpoint,value
CN1CCN(S(=O)(=O)c2ccc(-c3ccc4ncnc(Nc5ccc(OCc6ccccc6)cc5)c4c3)cc2)CC1,Leishmania major,"intracellular amastigote growth, luciferase",RAW264.7 macrophages,,EC50,1.9 µM
[N-]=[N+]=N[C@]1(COP(=O)(O)OP(=O)(O)OP(=O)(O)O)O[C@@H](n2ccc(N)nc2=O)[C@@H](F)[C@@H]1O,"POLG (Homo sapiens, UniProt P54098)","cell-free assay, inhibitor",,,IC50,> 1000 µM
